# Results of several laboratories.
# Each numbered part is a random draw from the data of one study; scales do not carry over between parts.

# Series 1 — technique: aptamer microarray, sandwich; molecule type: DNA with 2'F-ANA; sample: in vitro; tested at: 200 nM; with: Cy3 exosite-II aptamer, 400 nM; reading: higher = stronger binding; oligonucleotide: GGTTGGTGTGGTTGG
# Target: Prothrombin, mature alpha-thrombin (F2, Homo sapiens, UniProt P00734)
# Setting: whole 15-mer aptamer, many near background
Modification,mean fluorescence intensity [a.u.]
2'F-ANA at 1 2 3 4 5 6 7 9 12 14 15,46.6
2'F-ANA at 1 2 4 5 10 12 14,49.6
2'F-ANA at 4 6 7 8 9 13 15,183
2'F-ANA at 2 8 11 12 13 14,176
2'F-ANA at 3 4 6 12 13 15,577
2'F-ANA at 1 2 3 4 8 11 12 13 14 15,75
2'F-ANA at 2 3 4 5 6 10 12 15,106
2'F-ANA at 1 3 4 6 11 12 13 14,68.4
2'F-ANA at 2 3 4 8 11 12 13 15,676
2'F-ANA at 1 4 7 8 9 11 15,139
2'F-ANA at 1 2 3 5 7 10 11 13 14 15,47.6
2'F-ANA at 1 2 3 4 5 8 9 11 13 14,46.1
2'F-ANA at 3 5 6 9 10 12,66.8
2'F-ANA at 1 2 3 4 7 10 12 14,52.5
2'F-ANA at 1 3 5 6 7 11 12 14 15,45.1
2'F-ANA at 1 3 4 6 7 8 9 10 12 13 14,57.8
2'F-ANA at 4 5 7 8 9 11 14,46.5
2'F-ANA at 1 3 6 8 9 11 14,80.6
2'F-ANA at 1 2 4 5 6 8 11 14,45.2
2'F-ANA at 3 5 7 8 9 10 12,72.4
2'F-ANA at 2 3 5 6 7 8 9 10 11 13 14 15,87.8
2'F-ANA at 1 3 5 7 10 13 14 15,48.4
2'F-ANA at 1 3 4 11 12 14 15,173
2'F-ANA at 4 5 6 10 11 13,45.2
2'F-ANA at 1 2 5 6 7 8 9 10 11 12 14 15,62.1

# Series 2 — technique: RNA Bind-n-Seq; molecule type: RNA; sample: in vitro; tested at: 1 µM; setting: whole 134-nt RNA, ends assumed; with: 150 mM KCl; reference: input library; reading: higher = stronger binding
# Target: Ras GTPase-activating protein-binding protein 1, RRM domain (G3BP1, Homo sapiens, UniProt Q13283)
# UniProt Q13283, sequence (whole entry, looked up): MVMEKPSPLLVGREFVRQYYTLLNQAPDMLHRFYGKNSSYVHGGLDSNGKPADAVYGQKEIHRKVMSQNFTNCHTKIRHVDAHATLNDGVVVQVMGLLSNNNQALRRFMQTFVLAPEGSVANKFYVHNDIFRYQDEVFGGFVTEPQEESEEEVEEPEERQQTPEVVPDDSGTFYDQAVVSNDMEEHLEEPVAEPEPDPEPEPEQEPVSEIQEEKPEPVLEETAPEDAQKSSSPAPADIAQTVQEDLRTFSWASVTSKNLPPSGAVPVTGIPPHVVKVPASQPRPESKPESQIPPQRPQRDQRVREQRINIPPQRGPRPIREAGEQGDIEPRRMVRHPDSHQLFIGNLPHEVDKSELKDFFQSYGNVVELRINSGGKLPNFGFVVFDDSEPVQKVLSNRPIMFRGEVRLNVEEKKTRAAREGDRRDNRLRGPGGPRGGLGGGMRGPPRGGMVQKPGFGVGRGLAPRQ
# Constant ends, left off below: GGGAGUUCUACAGUCCGACGAUC … UGGAAUUCUCGGGUGUCAAGG
Oligonucleotide,log2 enrichment
UGUGCUACACAUCGUAUGUACCGAAUCGGUUUUUUUGGGGUUUUUUUGGGGUUUUUUUGGGGAAAGUAUUAUGUUACGCCGUUCGGAUCU,-0.0926
CAAGUCCUGUGCUACACAUCGUAUGUACCGAAUCGGGGAGGGGAGGGGAAAGGGGAAAGUAUUAUGUUACGCCGUUCGGAUCUGCACUUC,1.14
CACAGACAACACGCACCCACACAGACACAGAGGGAAGGGGUUGGCAUGGGGACAGGGUGCACAGCAGGGCGGGGUAGGACCCCAGCCCCU,-0.13
UUUUGCAUUUAGGGUUUUAACCAAGAAGAUCUGGAAGAAGAAAAAGGUGAAACACAGGUAAAAGAAGCAGAAGAUUCAGAUUCUGAUGAU,-0.244
AAGUCCUGUGCUACACAUCGUAUGUACCGAAUCGGGAAAAGGGGAAAAGGGAAAAGGAAAGUAUUAUGUUACGCCGUUCGGAUCUGCACU,-0.128
ACCAUGCAGGUGAAAAUCUUUGGGAAGUGGGGCAAGGGGGGGAUAGGGAGGGGGGUAACACUUUGGGAACAGGUGGUCCCAGGUCGUUUC,-0.387
UGGGAGGUGGAUUUUGUUUAUCUUUUUAGCUCAUUUCCAGGGGUGGGAAUUUUUUUUUAAUAUGUGUCAUGAAUAAAGUUGUUUUUGAAA,1.82
UGGCCCUGGUGGCAUGCGGGGAGGAAGAGGUGGCCUCAUGGAUCGUGGUGGUCCCGGUGUAAUGUUCAGAGGUGGCCGUGGUGGAGACAG,0.748
CAAGUCCUGUGCUACACAUCGUAUGUACCGAAUCGGGUUUGGUUUGGGUUUGGGGAAAGUAUUAUGUUACGCCGUUCGGAUCUGCACUUC,-0.284
UCCUGUGCUACACAUCGUAUGUACCGAAUCGGAAAAAAAGGAAAAAAAGGAAAAAAAGGAAAGUAUUAUGUUACGCCGUUCGGAUCUGCA,0.131
ACCAUGCAGGUGGGCAUCUUUGGGAAGUGGGGUAAGGGGGGGAUAGGGAGGGGGGUAACACUUUGGGAACAGGUGGUCCCAGGUCGUUUC,-0.547
CAAGUCCUGUGCUACACAUCGUAUGUACCGAAUCGGGAAAGGGAAAGGGGAAAGGGAAAGUAUUAUGUUACGCCGUUCGGAUCUGCACUU,0.623
ACCAUGCAGGUGGGCAUCUUUGGGAAGUGGGGGAAGGGGGGGAUAGGGAGGGGGGUAACACUUUGGGAACAGGUGGUCCCAGGUCGUUUC,-0.612
UCAUUGCAUGAAAAGUGGAAAAGUUUAGAUCUAUGGAAACAGAACUGUUGCCUAUAUGGAAAAUCAGUGCCUUGUGGCAAUACAGGUAAG,-0.234

# Series 3 — technique: RNA Bind-n-Seq; molecule type: RNA; sample: in vitro; tested at: 365 nM; reference: no-protein control; reading: higher = stronger binding
# Target: RNA binding protein fox-1 homolog 2, RRM domain, GST-SBP tag (RBFOX2, Homo sapiens, UniProt O43251-10, residues 100-194)
# Setting: natural RNA segment, single round, ends assumed
# Constant ends, left off below: GGGAGUUCUACAGUCCGACGAUC … UGGAAUUCUCGGGUGCCAA
# Target sequence (chain): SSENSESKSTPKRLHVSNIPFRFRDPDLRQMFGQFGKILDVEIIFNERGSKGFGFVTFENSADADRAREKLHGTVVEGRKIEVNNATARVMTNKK
Oligonucleotide,RBNS enrichment (R)
AUACCUAUAUCUUCCAGAUGUCCUCAUCUGCUGCAGGGCUUUGGCCCUGCUCAGGAUAAUGUGCUAUGAGCCCUCAUCUGACUCUCAGUUUGUACUGGAGAACCAUACAG,0.154
GUCUGUUGUGUGUCAUGCCAGUGAGGGACGUCAGACUUGGCUCAGCUCGGGGAGCCUUAGCCGCCCAUGCACUGGGGACGCUCCGCUGCCGUGCCGCCUGCACUCCUCAG,0.486
UCUACUUUCAAAAAUGAAACAAAAAGGAAAAAUGGCAAAGUACUGUUUUAGCUGUGCAUGUCAUAUCCACAAAGACUUUUAGCAGGUGAACUGUUCCAAGACUGACACAA,0.263
UAUCCCCAGCCCAGUCUUCCUCCUCCAUCCUUAAGCAGUAUAAAUGCUAUGUGCCCUCUUCACUUAGAGCGAGCUUUAGUGUGUCAAGGGACUCUGCUUUCCUGUACUUC,0.408
UUUUGUAUCUAGGAGUCCAUUUGAGUUCUUUCCAAUAUUUCCAUAUCGUUCAUAAAUGUGUCUGGGGGCUUCCUUGUUUGGAAAAUAUGGAUAUCGCUUUGUUUUCCUUU,0.921
GAACUCUGUGAAGGGAGGCCCAGAAUGGGUGCUUUCACCAAAAAAUUUGCCCGUUUACAAUCCUAGACGGACUGGGCCAUCAUUAGCUAAUAGCCUUUCUCCCUUGCCAU,0.329
UGCCCCUUCAAUCUUACCUUUUCCUACAAUGCCAUGUAAGUGGGGUCAGCCAUGAUGUCAUGUGUGUCAGUAGAGGGUCUCCUCUCCCUGCUGAGUAGUAUUCUAUCAUA,0.426
CAGUUUGGUCUGCAUUUGUUAGAAGUGUAACUCCUAACAACCCAAAGACCUAUUUAAUAAUUGGUGCAUAAAUGAAAGUAGUACUGUAUACUUGAAACUGUUUAAGUACA,0.399
AUUUUCUUUUGUCCUCCCCAAAUUUUGUCAAGUUUUUUCAUUCAUAUUUUACAUUAAAGCUUAUUUUGGGGAGAUAUGAAGGUCAUCUUCAUAAAUACAUAACAACCCUC,0.606
CAGGCUGGCCUCGAACUUGGAUAUCCACCUGCCUCUCCCUCCCGAGUGCUGGGUUUAAAGGUAUGCACCACCACCACCACCUGGUUUUAUGUUAUUUUCUAAAAUUGUCA,0.67
CUGUAUCCUGUGUCAUGUCCAAUCAGUUGUAAACAAUGGCAUCUUUGAACAGUGUGAUGAGAAUAGGAAUGUGGUGUUUUAAAGCAGUGUUGCAUUUUAAUCAGUAAUCU,0.88
GGAUAUCGAAAUGAAGGAGCUGCCUUAAGCACUUUAGAAAAAGAAUUUUUUUACAAUUCAUUUUGACUCUCAUGGCUGACCAUGUCAUUAUGUCUUUAAAUUUUGGUAAA,0.4

# Series 4 — technique: protein binding microarray; molecule type: double-stranded DNA, one strand shown; sample: in vitro; tested at: not given; reference: not given; reading: higher = stronger binding
# Target: Histone acetyltransferase KAT6A, winged helix 2, GST fusion (KAT6A, Homo sapiens, UniProt Q92794, residues 85-181)
# Setting: 8-mer, flanks averaged, mean of 2 arrays, mostly near background
# Construct (chain): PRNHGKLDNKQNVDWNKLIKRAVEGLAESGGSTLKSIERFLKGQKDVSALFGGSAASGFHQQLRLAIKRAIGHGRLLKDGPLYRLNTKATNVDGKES
Oligonucleotide,E-score
ATCATAAG,-0.0594
CAAGGTGG,0.0505
GATAGGCA,0.0339
CTTGAACA,-0.00415
CCGTCACA,0.0408
AGAAGTTG,-0.181
ATTTAACA,0.00547
CAAGGGTA,-0.243
AAAGCCGA,-0.179
GAATCATC,-0.0235
CACCCCAA,-0.056
CTAGCGGC,0.0616
ATCAGCAG,0.0496
GTCTCCAC,0.0415
ATGCGACG,0.0726
CCGGATGC,0.169
CGACCATC,-0.0985
AATTGTTC,0.143
GATCAGTA,0.105
CTGTTCTC,0.03
CCACAAGG,0.032
GCCAAGAC,-0.0368
GAATACGC,-0.14
GCATGGTA,0.0334
GGTAAACA,-0.0264

# Some of these lines once more (series 2):
Oligonucleotide,log2 enrichment
UUUUGCAUUUAGGGUUUUAACCAAGAAGAUCUGGAAGAAGAAAAAGGUGAAACACAGGUAAAAGAAGCAGAAGAUUCAGAUUCUGAUGAU,-0.244
AAGUCCUGUGCUACACAUCGUAUGUACCGAAUCGGGAAAAGGGGAAAAGGGAAAAGGAAAGUAUUAUGUUACGCCGUUCGGAUCUGCACU,-0.128
ACCAUGCAGGUGAAAAUCUUUGGGAAGUGGGGCAAGGGGGGGAUAGGGAGGGGGGUAACACUUUGGGAACAGGUGGUCCCAGGUCGUUUC,-0.387
UGGGAGGUGGAUUUUGUUUAUCUUUUUAGCUCAUUUCCAGGGGUGGGAAUUUUUUUUUAAUAUGUGUCAUGAAUAAAGUUGUUUUUGAAA,1.82
UGGCCCUGGUGGCAUGCGGGGAGGAAGAGGUGGCCUCAUGGAUCGUGGUGGUCCCGGUGUAAUGUUCAGAGGUGGCCGUGGUGGAGACAG,0.748
CAAGUCCUGUGCUACACAUCGUAUGUACCGAAUCGGGUUUGGUUUGGGUUUGGGGAAAGUAUUAUGUUACGCCGUUCGGAUCUGCACUUC,-0.284
UCCUGUGCUACACAUCGUAUGUACCGAAUCGGAAAAAAAGGAAAAAAAGGAAAAAAAGGAAAGUAUUAUGUUACGCCGUUCGGAUCUGCA,0.131
